Measurements from different studies.
Lines come from different studies, so protocols differ. Values joined by “and” are separate records of one study, mostly repeats; a detail may differ. ± gives the spread as reported.
ADRB2: Beta-2 adrenergic receptor (ADRB2, Homo sapiens, UniProt P07550)
Sequence of UniProt P07550 (whole entry, looked up): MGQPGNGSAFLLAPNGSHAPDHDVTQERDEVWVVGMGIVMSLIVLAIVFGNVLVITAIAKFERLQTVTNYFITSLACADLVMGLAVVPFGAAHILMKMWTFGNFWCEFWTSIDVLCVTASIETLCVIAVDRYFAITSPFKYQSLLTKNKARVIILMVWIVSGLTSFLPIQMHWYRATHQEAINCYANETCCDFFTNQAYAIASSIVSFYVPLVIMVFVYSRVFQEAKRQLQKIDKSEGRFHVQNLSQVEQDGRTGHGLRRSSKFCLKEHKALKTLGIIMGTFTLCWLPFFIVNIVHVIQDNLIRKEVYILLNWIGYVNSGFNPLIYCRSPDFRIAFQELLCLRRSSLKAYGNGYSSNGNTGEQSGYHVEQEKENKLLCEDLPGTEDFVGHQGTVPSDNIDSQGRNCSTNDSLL
NNMT: Nicotinamide N-methyltransferase (NNMT, Homo sapiens, UniProt P40261)
Sequence of UniProt P40261 (whole entry, looked up): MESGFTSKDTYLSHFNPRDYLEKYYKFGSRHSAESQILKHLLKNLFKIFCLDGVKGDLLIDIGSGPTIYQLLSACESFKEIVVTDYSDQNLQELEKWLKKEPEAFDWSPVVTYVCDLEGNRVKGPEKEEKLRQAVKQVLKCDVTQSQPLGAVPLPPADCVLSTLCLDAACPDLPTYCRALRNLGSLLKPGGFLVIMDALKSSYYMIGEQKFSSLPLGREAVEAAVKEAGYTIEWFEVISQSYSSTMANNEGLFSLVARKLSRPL
Gria1: Glutamate receptor 1 (Gria1, Rattus norvegicus, UniProt P19490)
Uncharacterized protein: Uncharacterized protein (Trypanosoma brucei brucei, UniProt Q386Q8)
JAK1: Tyrosine-protein kinase JAK1 (JAK1, Homo sapiens, UniProt P23458)
Sequence of UniProt P23458 (whole entry, looked up): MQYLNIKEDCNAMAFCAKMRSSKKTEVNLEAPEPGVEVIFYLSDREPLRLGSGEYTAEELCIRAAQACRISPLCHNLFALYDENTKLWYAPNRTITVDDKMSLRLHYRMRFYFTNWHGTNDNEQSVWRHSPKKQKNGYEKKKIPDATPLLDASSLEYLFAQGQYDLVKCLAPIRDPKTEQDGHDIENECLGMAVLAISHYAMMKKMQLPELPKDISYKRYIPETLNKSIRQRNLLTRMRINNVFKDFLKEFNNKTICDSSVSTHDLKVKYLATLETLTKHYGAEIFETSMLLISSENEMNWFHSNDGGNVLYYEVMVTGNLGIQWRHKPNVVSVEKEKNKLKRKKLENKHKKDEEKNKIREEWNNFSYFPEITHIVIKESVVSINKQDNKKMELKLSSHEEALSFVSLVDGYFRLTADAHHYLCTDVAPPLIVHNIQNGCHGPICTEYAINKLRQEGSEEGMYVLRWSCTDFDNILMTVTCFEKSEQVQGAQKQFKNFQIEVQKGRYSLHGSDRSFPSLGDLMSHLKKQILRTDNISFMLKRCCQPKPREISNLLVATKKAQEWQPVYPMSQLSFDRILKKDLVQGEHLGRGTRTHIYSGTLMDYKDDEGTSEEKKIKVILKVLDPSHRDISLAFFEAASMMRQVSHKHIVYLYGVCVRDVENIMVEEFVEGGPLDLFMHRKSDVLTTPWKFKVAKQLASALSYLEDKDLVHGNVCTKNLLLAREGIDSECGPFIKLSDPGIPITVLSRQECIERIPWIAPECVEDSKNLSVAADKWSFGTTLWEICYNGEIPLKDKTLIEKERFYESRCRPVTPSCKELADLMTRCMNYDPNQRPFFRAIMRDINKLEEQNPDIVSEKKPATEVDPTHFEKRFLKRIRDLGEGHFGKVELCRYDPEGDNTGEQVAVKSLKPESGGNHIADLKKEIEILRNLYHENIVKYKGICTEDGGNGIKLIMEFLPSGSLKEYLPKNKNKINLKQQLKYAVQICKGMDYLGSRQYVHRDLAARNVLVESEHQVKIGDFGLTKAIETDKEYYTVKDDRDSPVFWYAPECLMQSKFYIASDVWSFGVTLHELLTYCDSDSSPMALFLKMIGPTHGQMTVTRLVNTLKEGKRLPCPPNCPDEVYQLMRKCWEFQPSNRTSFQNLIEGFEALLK
ppa: Inorganic pyrophosphatase (ppa, Escherichia coli, UniProt P0A7A9)
Sequence of UniProt P0A7A9 (whole entry, looked up): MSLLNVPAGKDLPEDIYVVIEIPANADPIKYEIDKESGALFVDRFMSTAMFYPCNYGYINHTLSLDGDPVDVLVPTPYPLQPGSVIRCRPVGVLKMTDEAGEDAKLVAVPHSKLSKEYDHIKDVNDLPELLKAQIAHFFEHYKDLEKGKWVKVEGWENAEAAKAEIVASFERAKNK
SLC7A5: Large neutral amino acids transporter small subunit 1 (SLC7A5, Homo sapiens, UniProt Q01650)
Sequence of UniProt Q01650 (whole entry, looked up): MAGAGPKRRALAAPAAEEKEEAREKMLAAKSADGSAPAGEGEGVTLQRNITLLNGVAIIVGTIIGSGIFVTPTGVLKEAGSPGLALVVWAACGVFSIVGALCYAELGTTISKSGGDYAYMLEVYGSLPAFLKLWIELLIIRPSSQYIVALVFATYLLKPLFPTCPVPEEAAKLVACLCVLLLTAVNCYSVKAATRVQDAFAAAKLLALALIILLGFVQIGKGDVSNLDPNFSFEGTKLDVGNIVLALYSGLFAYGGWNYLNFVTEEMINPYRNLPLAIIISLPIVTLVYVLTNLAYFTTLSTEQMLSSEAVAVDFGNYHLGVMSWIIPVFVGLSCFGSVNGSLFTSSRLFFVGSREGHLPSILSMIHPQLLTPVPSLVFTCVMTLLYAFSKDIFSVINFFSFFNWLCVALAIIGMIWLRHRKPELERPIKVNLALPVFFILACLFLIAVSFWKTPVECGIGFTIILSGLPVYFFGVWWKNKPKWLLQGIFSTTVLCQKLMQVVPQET
TDP1: Tyrosyl-DNA phosphodiesterase 1 (TDP1, Homo sapiens, UniProt Q9NUW8)
Sequence of UniProt Q9NUW8 (whole entry, looked up): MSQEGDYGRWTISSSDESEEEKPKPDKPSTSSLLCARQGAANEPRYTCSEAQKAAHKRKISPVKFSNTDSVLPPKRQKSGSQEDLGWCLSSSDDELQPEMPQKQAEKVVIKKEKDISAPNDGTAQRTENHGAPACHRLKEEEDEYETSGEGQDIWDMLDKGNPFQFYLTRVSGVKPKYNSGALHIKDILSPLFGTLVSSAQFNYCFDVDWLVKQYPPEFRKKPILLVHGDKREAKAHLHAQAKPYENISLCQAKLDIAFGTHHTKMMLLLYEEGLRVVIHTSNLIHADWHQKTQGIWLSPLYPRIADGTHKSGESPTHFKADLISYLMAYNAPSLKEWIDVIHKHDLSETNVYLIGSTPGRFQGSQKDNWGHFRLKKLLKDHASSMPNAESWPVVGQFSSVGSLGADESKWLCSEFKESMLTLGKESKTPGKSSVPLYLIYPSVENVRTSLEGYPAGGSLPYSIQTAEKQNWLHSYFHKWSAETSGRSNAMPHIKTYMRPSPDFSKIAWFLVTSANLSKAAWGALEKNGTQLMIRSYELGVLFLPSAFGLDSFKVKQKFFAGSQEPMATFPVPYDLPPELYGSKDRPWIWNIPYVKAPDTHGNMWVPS
NTSR1: Neurotensin receptor type 1 (NTSR1, Homo sapiens, UniProt P30989)
Sequence of UniProt P30989 (whole entry, looked up): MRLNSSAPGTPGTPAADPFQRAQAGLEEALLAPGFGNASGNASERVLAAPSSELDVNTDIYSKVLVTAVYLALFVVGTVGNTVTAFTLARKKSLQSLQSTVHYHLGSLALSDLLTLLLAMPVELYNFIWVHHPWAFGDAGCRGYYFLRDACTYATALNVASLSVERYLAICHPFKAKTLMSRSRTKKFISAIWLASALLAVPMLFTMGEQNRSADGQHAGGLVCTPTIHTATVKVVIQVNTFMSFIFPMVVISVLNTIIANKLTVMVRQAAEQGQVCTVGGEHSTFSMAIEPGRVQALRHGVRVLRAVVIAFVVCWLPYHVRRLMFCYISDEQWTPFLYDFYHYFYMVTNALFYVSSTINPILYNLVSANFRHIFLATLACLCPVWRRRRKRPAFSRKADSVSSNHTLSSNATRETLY
DNA dC->dU-editing enzyme APOBEC-3B: DNA dC->dU-editing enzyme APOBEC-3B (Homo sapiens, UniProt Q9UH17)
Sequence of UniProt Q9UH17 (whole entry, looked up): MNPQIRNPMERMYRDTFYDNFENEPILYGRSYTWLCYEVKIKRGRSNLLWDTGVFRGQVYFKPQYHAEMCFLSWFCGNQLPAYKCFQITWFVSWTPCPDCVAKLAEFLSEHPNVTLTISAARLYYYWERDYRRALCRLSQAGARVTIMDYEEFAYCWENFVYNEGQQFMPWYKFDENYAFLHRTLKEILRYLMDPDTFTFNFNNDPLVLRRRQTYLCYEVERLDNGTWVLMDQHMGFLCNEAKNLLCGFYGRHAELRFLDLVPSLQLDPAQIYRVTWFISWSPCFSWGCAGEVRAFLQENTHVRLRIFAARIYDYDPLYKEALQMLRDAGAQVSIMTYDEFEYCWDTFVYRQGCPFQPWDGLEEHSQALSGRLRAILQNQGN
MAOB: Amine oxidase [flavin-containing] B (MAOB, Homo sapiens, UniProt P27338)
Sequence of UniProt P27338 (whole entry, looked up): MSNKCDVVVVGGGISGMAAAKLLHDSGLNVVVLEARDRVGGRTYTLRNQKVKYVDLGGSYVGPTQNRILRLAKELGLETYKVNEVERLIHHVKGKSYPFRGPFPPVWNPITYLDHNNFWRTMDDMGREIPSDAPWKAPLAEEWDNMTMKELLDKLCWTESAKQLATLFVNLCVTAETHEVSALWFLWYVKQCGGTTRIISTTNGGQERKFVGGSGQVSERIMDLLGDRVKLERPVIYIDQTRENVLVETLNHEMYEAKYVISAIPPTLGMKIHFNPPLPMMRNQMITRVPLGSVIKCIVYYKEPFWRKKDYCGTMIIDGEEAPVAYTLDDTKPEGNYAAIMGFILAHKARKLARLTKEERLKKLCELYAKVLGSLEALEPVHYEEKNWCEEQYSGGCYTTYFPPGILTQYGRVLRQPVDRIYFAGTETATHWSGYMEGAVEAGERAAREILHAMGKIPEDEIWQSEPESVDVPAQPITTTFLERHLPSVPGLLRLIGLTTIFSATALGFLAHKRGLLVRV

| SMILES | target | test | system | conditions | measurement | result |
| --- | --- | --- | --- | --- | --- | --- |
| O=C(CCNC(=O)CNC(=O)CC(c1ccccc1)(c1ccccc1)c1ccccc1)NC[C@@H]1CCCN(C[C@H]2C[C@H](F)C2)C1 | CHRM5 (Homo sapiens, UniProt P08912) | ligand displacement, radioligand | – | cell membranes | IC50 | > 30 µM |
| CN(C)c1nc(NCc2ccccc2)c(/N=N/c2ccc(Cl)cc2)c(N(C)C)n1 | Chitinase (OfChi-h, Ostrinia furnacalis, UniProt Q4AE59) | enzyme activity, inhibitor, fluorescence | – | – | IC50 | 0.1 µM |
| Cc1nn(-c2cccc(N)c2)c(=O)c2cnc(Nc3ccc(N4CCNCC4)cc3)nc12 | Proto-oncogene tyrosine-protein kinase Src, N1 isoform (SRC, Homo sapiens, UniProt P12931) | inhibitor, SelectScreen kinase | – | – | IC50 | > 10 µM |
| Clc1ccc(Nc2nc(NC3CCCCC3)c3ccccc3n2)cc1 | ADRB2 | cAMP production, antagonist, GloSensor | – | added: isoproterenol 1 µM | IC50 | > 50 µM |
| C[n+]1cc(C(N)=O)ccc1N | NNMT | enzyme activity, inhibitor | – | – | IC50 | 0.398 µM |
| O=C(O)Cc1cc2c(cc1C(=O)c1ccccc1Cl)OCO2 | Gria1 | glutamate-evoked current, inhibitor, whole-cell patch clamp | HEK293T, homomeric receptor | – | IC50 | 4.47 µM |
| OCC1OC(n2cnc3c(NCc4ccc(Br)s4)ncnc32)C(O)C1O (stereo not shown) | CYP2C19 (Homo sapiens, UniProt P33261) | enzyme activity, inhibitor, fluorescence | – | pH 7.4 | IC50 | 35.4 µM |
| c1csc(C2=Nn3c(nnc3C3CCCCC3)SC2)c1 | Uncharacterized protein | inhibitor, coupled colorimetric | Trypanosoma brucei | – | IC50 | 197 µM |
| Cc1cc(NC2CCN(C)CC2)ccc1-c1cc2c(N3CCC[C@H](C(=O)NCc4ccc(OC(F)(F)F)cc4)C3)ncnc2[nH]1 | JAK1 | enzyme activity, inhibitor, mobility shift | – | – | IC50 | > 8 µM |
| O=C(O)Cc1cc2c(cc1C(=O)c1cccc(I)c1)OCO2 | Gria1 | glutamate-evoked current, inhibitor, whole-cell patch clamp | HEK293T, homomeric receptor | – | IC50 | 4.75 µM |
| COc1ccc(C(=O)CC2(O)C(=O)Nc3cc(Cl)cc(Cl)c32)cc1OC (stereo not shown) | ppa | enzyme activity, inhibitor | – | – | IC50 | > 100 µM |
| COc1ccc(Nc2nc(NC3CCCCC3)c3ccccc3n2)cc1OC | ADRB2 | cAMP production, antagonist, GloSensor | – | added: isoproterenol 1 µM | IC50 | > 50 µM |
| N[C@@H](Cc1c[nH]c2ccc(OCc3cccc(-c4cccs4)c3)cc12)C(=O)O | SLC7A5 | transporter uptake, inhibitor, radiometric | – | – | IC50 | 12.6 µM |
| C=CCOc1ccc(C=NOCc2ccc3nc(-c4ccccc4)c(Nc4ccc(C(=O)O)cc4)n3c2)cc1I (mixture of isomers) | TDP1 | enzyme activity, inhibitor | – | 100 µM, unpurified compound | inhibition | 4.4% |
| Cc1ccc2c(c1)C(O)(CC(=O)c1ccc3c(c1)OCO3)C(=O)N2 (stereo not shown) | ppa | enzyme activity, inhibitor | – | – | IC50 | > 100 µM |
| COc1ccccc1C1CCN(c2nc(C3(C)CCCC3)nc3ccc(N(C)CCO)cc23)CC1 | NTSR1 | G protein activation, antagonist, BRET | – | – | IC50 | 11.7 µM |
| O=c1c(-c2cnn(-c3ccccc3)c2)c(C(F)(F)F)oc2c(O)c(O)ccc12 | Cullin-4A (CUL4A, Homo sapiens, UniProt Q13619) | enzyme activity, inhibitor, fluorescence | – | – | IC50 | 13.9 µM |
| O=C(CCc1ccccc1)N1C(=O)C2(NC(c3ccc(F)cc3)C3(C(=O)Nc4ccccc43)N2Cc2ccc(F)cc2)c2ccccc21 (stereo not shown) | PIK3CD (Homo sapiens, UniProt O00329) | enzyme activity, inhibitor, ADP detection | – | – | IC50 | 0.0797 µM |
| CN(C)c1cc(N)c2cc(Cl)ccc2n1 | ppa | inhibitor, counter-screen, coupling enzyme alone | – | – | IC50 | 40.3 µM |
| O=C(O)c1cccnc1-c1nc2cc(OC(F)(F)F)ccc2[nH]1 | Core-binding factor subunit beta, with RUNX1 Runt domain (Homo sapiens, UniProt Q13951) | Runt domain binding, inhibitor, FRET | – | – | IC50 | 48.9 ± 1.6 µM |

| SMILES | target | test | system | conditions | measurement | result |
| --- | --- | --- | --- | --- | --- | --- |
| C[N+](C)(CCCN1c2ccccc2CCc2ccc(Cl)cc21)Cc1ccc2ccccc2c1 | ppa | inhibitor, counter-screen, coupling enzyme alone | – | – | IC50 | 32.6 µM |
| Cc1ccc(S(=O)(=O)N2C(=O)CC2c2ccccc2)cc1 (stereo not shown) | glpG (Escherichia coli, UniProt P09391) | substrate cleavage, inhibitor | NR698 | – | IC50 | > 100 µM |
| COc1ccc(C(=O)CC2(O)C(=O)Nc3ccc(C)cc32)cc1OC (stereo not shown) | Uncharacterized protein | inhibitor, coupled colorimetric | Trypanosoma brucei | – | IC50 | > 100 µM |
| COc1ccccc1C1CCN(c2nc(C3(C(F)(F)F)CC3)nc3ccc(N(C)CCO)cc23)CC1 | NTSR1 | G protein activation, antagonist | – | – | IC50 | 0.185 µM |
| CNc1cc(CF)c(C(N)=O)cn1 | NNMT | enzyme activity, inhibitor | – | – | IC50 | 0.2 µM |
| CC(=O)OC1CCC2(C)C(CCC3(C)C2CC=C2C4C(C)C(C)CCC4(C(=O)O)CCC23C)C1(C)C (stereo not shown) | UGT1A4 (Homo sapiens, UniProt P22310) | enzyme activity, inhibitor | human, liver microsomes | – | IC50 | 1.36 µM and 1.22 µM |
| CN(c1ccccc1)c1nc(NC2CCCCC2)c2ccccc2n1 | ADRB2 | cAMP production, antagonist, GloSensor | – | added: isoproterenol 1 µM | IC50 | > 50 µM |
| C[N+](C)(C/C=C/CN1C(=O)c2ccccc2C1=O)CCCN1c2ccccc2CCc2ccc(Cl)cc21 | ppa | inhibitor, counter-screen, coupling enzyme alone | – | – | IC50 | 34.3 µM |
| COc1ccc(-c2ccc(C(=O)N(C)CCO)cc2)c(OC)c1 | DNA dC->dU-editing enzyme APOBEC-3B | enzyme activity, inhibitor, HPLC | – | – | IC50 | 338 µM |
| COc1ccccc1N1CCN(c2nc(C3CC3)nc3cc(C(F)(F)F)c(OC)cc23)CC1 | NTSR1 | G protein activation, antagonist | – | – | IC50 | 1.05 µM |
| Cc1cc(O)c2c(c1)C(=O)c1c(O)c(O)cc(O)c1C2=O | MAOB | enzyme activity, inhibitor | – | – | IC50 | ~20 µM and 20.4 µM |
| OCC1CCCN(CCNc2cc(-c3ccccc3)nc3ccnn23)C1 (stereo not shown) | DNA dC->dU-editing enzyme APOBEC-3B, C-terminal domain (Homo sapiens, UniProt Q9UH17) | deaminase activity, inhibitor, UDG-coupled deamination | – | – | IC50 | 97.6 ± 4.1 µM |
| N[C@@H](Cc1c[nH]c2ccc(OCc3cccc(-c4ccoc4)c3)cc12)C(=O)O | SLC7A5 | transporter uptake, inhibitor, radiometric | – | – | IC50 | 40.1 µM |
| Cc1cnc(Nc2ccc3c(c2)CCN(C(=O)/C=C/C(=O)C2CCCC2)C3)nc1-c1cnn(C(C)C)c1 | JAK1 | enzyme activity, inhibitor, ADP detection | – | – | IC50 | 0.0108 µM |
| CCN(CC)CC(=O)Nc1cccc(-n2cc(-c3ccc4ccc(-c5cn(-c6cccc(NC(=O)CN(CC)CC)c6)nn5)cc4c3)nn2)c1 | WNK1 (Homo sapiens, UniProt Q9H4A3) | enzyme activity, inhibitor | – | – | IC50 | > 10 µM |
| Cn1nc(C=NOCc2ccc3nc(-c4ccccc4)c(Nc4ccc(C(=O)O)cc4)n3c2)cc1-c1ccccc1 (mixture of isomers) | TDP1 | enzyme activity, inhibitor | – | 100 µM, unpurified compound | inhibition | 6.7% |
| Cc1ccc(C)c(C2=Nn3c(nnc3C3CCCCC3)SC2C)c1 (stereo not shown) | ppa | enzyme activity, inhibitor | – | – | IC50 | 226 µM |
| CCC(NC(=O)c1cccc(-c2ccc(C)nc2N)c1)c1ccnn1C (stereo not shown) | DNA dC->dU-editing enzyme APOBEC-3B | enzyme activity, inhibitor, HPLC | – | – | IC50 | 734 µM |
| CC(C)c1ccc(/C=C/C(=O)c2ccc(F)cc2)cc1 | MAOB | enzyme activity, inhibitor | – | – | IC50 | 0.035 µM |
| Cn1c(=O)c(-c2ccccc2Cl)cc2cnc(Nc3cccc(S(C)(=O)=O)c3)nc21 | SRC (Homo sapiens, UniProt P12931) | enzyme activity, inhibitor | – | – | IC50 | 0.03 µM |

Repeated from above:
| SMILES | target | test | system | conditions | measurement | result |
| --- | --- | --- | --- | --- | --- | --- |
| COc1ccc(Nc2nc(NC3CCCCC3)c3ccccc3n2)cc1OC | ADRB2 | cAMP production, antagonist, GloSensor | – | added: isoproterenol 1 µM | IC50 | > 50 µM |
| Cc1cc(NC2CCN(C)CC2)ccc1-c1cc2c(N3CCC[C@H](C(=O)NCc4ccc(OC(F)(F)F)cc4)C3)ncnc2[nH]1 | JAK1 | enzyme activity, inhibitor, mobility shift | – | – | IC50 | > 8 µM |
| CCC(NC(=O)c1cccc(-c2ccc(C)nc2N)c1)c1ccnn1C (stereo not shown) | DNA dC->dU-editing enzyme APOBEC-3B | enzyme activity, inhibitor, HPLC | – | – | IC50 | 734 µM |
| O=C(O)c1cccnc1-c1nc2cc(OC(F)(F)F)ccc2[nH]1 | Core-binding factor subunit beta, with RUNX1 Runt domain (Homo sapiens, UniProt Q13951) | Runt domain binding, inhibitor, FRET | – | – | IC50 | 48.9 ± 1.6 µM |
| CC(=O)OC1CCC2(C)C(CCC3(C)C2CC=C2C4C(C)C(C)CCC4(C(=O)O)CCC23C)C1(C)C (stereo not shown) | UGT1A4 (Homo sapiens, UniProt P22310) | enzyme activity, inhibitor | human, liver microsomes | – | IC50 | 1.36 µM and 1.22 µM |
